# Published values collected from several papers.
# Numbered parts are unrelated; each lists some results of a single study. Substitutions count along the parent as printed.

# Block 1
# Target: JUNB, bZIP domain (human)
# Method: DHFR protein complementation
# Matrix: yeast
# Notes: single substitutions, most at no-binding floor
# Baseline: wild-type JUN-FOS pair
# Direction: higher = stronger binding
# Starting sequence: JUN, bZIP domain (human); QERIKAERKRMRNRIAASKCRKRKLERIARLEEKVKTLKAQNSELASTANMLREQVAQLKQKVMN; partner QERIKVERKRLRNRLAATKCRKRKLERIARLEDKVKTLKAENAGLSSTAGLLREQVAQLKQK
Change,binding fitness [natural log]
T37S,-1.21
A57L,-1.24
Q41W,-1.64
L31P,-1.52
K39D,-1.49
A46Y,-1.22
R53D,-1.54
T37E,-0.833
L52D,-1.54
E33G,-1.34
L38V,-1.55
K39Y,-1.45
T37A,-0.907
L31E,-1.62
V56Q,-1.51
E44H,-1.11
A46S,-1.11
A57R,-1.2
V56Y,-1.2

# Block 2
# Target: Histone acetyltransferase KAT6A, winged helix 1, GST fusion (KAT6A, Homo sapiens, UniProt Q92794, residues 1-85)
# Method: protein binding microarray
# Form: double-stranded DNA, one strand shown
# Matrix: in vitro
# Concentration: not given
# Notes: 8-mer, flanks averaged, mean of 2 arrays, mostly near background
# Baseline: not given
# Direction: higher = stronger binding
# Residues (chain): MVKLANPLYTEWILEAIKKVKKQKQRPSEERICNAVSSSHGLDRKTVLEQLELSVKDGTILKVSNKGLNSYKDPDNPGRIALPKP
Sequence,E-score
AGTAGTGA,-0.147
GCTGTATA,-0.165
AGCTTACT,-0.0923
CCGAAGAG,0.0278
AGTATCGA,0.0894
TCAATCAA,-0.0957
CCATGCAC,-0.222
AAGTTCTA,-0.0829
CCTGTCAC,-0.0472
GGCTCAAC,-0.12
AAATCCCA,-0.178
GCGATGTA,0.121
GATGATTA,0.0499
AGCGTTCC,0.145
CCGCCCCG,0.392
GGTGCACC,-0.114
GTCGTTTA,0.0787
ACCTTTGA,-0.141
ACAGAACA,-0.12
CAAAGTGC,-0.0412
ACTGGACA,-0.181
CATTCCCG,0.266

# Block 3
# Target: CCNB1, cyclin fold, Cln2 fusion (human)
# Method: yeast growth competition, sequencing
# Matrix: yeast
# Notes: strong parent motif
# Baseline: not given
# Direction: higher = stronger binding
# Starting sequence: MICAL3 docking peptide (human); LQLRRQLSFSEDS; partner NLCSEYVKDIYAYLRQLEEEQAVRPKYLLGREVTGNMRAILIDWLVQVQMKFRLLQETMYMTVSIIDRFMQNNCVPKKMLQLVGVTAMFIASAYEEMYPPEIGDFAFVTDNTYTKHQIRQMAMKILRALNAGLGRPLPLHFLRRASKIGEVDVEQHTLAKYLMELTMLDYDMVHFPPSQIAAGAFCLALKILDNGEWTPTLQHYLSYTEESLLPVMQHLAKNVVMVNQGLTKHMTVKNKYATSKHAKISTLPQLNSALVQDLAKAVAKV
Change,normalised enrichment score
S10A,3.38
Q6Y,1.47
Q2W,3.26
L7D,-0.458
Q6G,1.83
D12K,3.16
D12L,3.69
L3Y,1.65
R5M,0.631
L7I,1.61
L3E,0.718
F9R,0.315
R4W,1.88
Q6V,3.14
Q6R,6.07
D12E,5.26

# Block 4
# Target: ABI1, truncated, D143A, DHFR fusion (Arabidopsis thaliana)
# Method: DHFR PCA, deep sequencing
# Matrix: yeast
# Notes: methotrexate growth selection, single substitutions
# With: (+)-ABA 0.0091 µM
# Baseline: wild-type fitted maximum
# Direction: higher = stronger binding
# Starting sequence: PYL1, truncated, DHFR fusion (Arabidopsis thaliana); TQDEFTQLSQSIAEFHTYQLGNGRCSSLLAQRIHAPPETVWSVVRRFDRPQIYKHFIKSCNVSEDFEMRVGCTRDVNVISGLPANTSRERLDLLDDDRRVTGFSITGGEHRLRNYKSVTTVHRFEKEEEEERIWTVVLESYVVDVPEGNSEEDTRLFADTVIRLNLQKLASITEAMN
Change,relative binding score [%]
P146Q,24.4
E130P,67.9
E64G,13.9
R132D,60
L93M,18.1
T154G,-2.97
V121Q,-3.31
D95T,-1.34
D95C,-5.71
W41I,-2.22
V43C,1.7
S150K,13.2
I52E,21.7
W41N,-1.99
A13R,38.2
E38K,-0.0615
N114D,13.5
V161F,15.7
C25N,-3.99
F157L,3.8

# Repeated from above (block 3):
Change,normalised enrichment score
Q6G,1.83
D12K,3.16
D12L,3.69
L3Y,1.65
R5M,0.631
L7I,1.61
L3E,0.718
F9R,0.315
R4W,1.88
Q6V,3.14
Q6R,6.07
D12E,5.26
